Published values from different studies.
Every numbered part comes from another study and shows a few of its results, in no order.

Block 1
Target: RING finger protein unkempt homolog, zinc fingers 1-6, GST-SBP tag (UNK, Homo sapiens, UniProt Q9C0B0, residues 30-357)
Chain of UniProt Q9C0B0 (30-357, looked up): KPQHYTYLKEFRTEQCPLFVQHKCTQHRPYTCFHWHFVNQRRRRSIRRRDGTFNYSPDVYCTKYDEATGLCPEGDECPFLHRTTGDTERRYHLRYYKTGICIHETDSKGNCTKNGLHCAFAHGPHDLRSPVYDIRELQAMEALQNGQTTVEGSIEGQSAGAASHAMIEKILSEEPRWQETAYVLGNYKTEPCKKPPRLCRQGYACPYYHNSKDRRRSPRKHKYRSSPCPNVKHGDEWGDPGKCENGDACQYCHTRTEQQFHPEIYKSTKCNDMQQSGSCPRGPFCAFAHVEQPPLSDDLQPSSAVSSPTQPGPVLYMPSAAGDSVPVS
Method: RNA Bind-n-Seq
Molecule type: RNA
Medium: in vitro
Concentration: not given
Setting: RNA with constant flanks, human and mouse sites, ends assumed
Reference: input RNA pool
Reading: higher = stronger binding
Endpoint: bound/input enrichment
Constant ends, left off below: GGGAGUUCUACAGUCCGACGAUC … CAACAGAGGAUUGAGCAUCA
AGCACAUAAAAAGUUCCCCUCUGGCCCCUUCCCAAGUAAAACUUUUACCGUAGUGUUUAUGUCUUGUUUCUAAAUCUCUUCAUAGAUUCCAUCAACACUCCAGAUUUAAUUAUCUCCUCA: 1.93 ratio
AUUCUUACAGAUAAAAACUGUAUAUGUUUAUAAAUAGUUAUAAAGAACUAUUUUAUAUAAUAGCUAUUAUCAUUGUAGAAAUGACUUACAAAUACAAAAUGUGUAUGUAAAUACUUUCUG: 0.398 ratio
UUAAAGGUGCGCUAUCCAGAGCGCAUCACAAUAUUGCGAGGAAAUCACGAAAGCCGGCAGAUCACACAAGUGUAUGGCUUUUAUGAUGAGUGCCUACGGAAGUAUGGAAAUGCCAACGUG: 0.147 ratio
GCACCCCCUGGUCGCCCUGAGGCGCAGCCUCCUCCUCUCAGCUCUGAGCAUAAAGAGCCGGUAGCCGGGGACGCAGUGCCCGGGCCAAAGGAUGGCAGCGCCCCAGAGGUCCGAGGCGCU: 0.0869 ratio
AGGAAUGUUGAAGAGAACUCCAAAAAGAAACAGCAAUAUGAAGAAGAUUCCAAAGAAACCCUUAAAACAAGUGAGCAUUGUGAAAAGGAAAAAAUUUCUUCUUCAAAGGAGCUGAAGCAU: 0.12 ratio
GGCAUGGUCAUUCAUCAAGUAGAAGCCAAGCCCUCCGUCUAUUUCAUCAAGUUUGAUGAUGAUUUCCAUAUUUAUGUCUACGAUUUGGUGAAAACAUCCUAGAUGUCAUCACAAACUCUG: 0.0913 ratio
GAGGACACUGGACUAAAUGAUUGCCCAGUUUCCAGCUAGUCCUAGAGUUCUAUAUUUCUACAUAGUUGAAUUAUUUUAUCAUGCGGUUGCUGGGGAAUACAACUAACACUUUUGAAGCUA: 3.62 ratio
GGAAUCAACUUCAUGGUCUACCAGCCCACCCCGUGGGAGGCGUCCUCAGACUCGAUAAAACGUUUACAAAAUGCCAUGACAGAAAGUGGCGUGAUGCUUCGGGAGCCUCGAAGAAUCUAU: 0.113 ratio
AGGGAUAUUGGUGCUGGAAAGGGAAAAUACUAUGCUGUCAAUUUUCCCAUGAGAGAUGGUAUAGAUGAUGAAUCAUAUGGACAAAUUUUUAAGCCUAUCAUCUCAAAAGUGAUGGAGAUG: 0.465 ratio
ACCUUAGCUGUGGGACUCAUCAACAUGGCAGAGGUGAUGCAACACCCUAAUGAGGGCGCUUUAGUACUUGGCCUGCACAGCAAUGUGAAGGAUGUCUCUGUGCCAGUGGCAGAAAUAAAA: 0.178 ratio
AUGACACCUCACUUCCCUAGAGAAGGCCUGCCUCCCCAUAGGGAAUCUGGGGGUUUCUUCUGGAACGGGGCGUGAGGACACAAGGAGGCCUCUGGGCCACGCCUCCCUACCAGAUGCAGG: 0.0762 ratio

Block 2
Target: RNA binding protein fox-1 homolog 2, RRM domain, GST-SBP tag (RBFOX2, Homo sapiens, UniProt O43251-10, residues 100-194)
Method: RNA Bind-n-Seq
Molecule type: RNA
Medium: in vitro
Concentration: 365 nM
Setting: natural RNA segment, single round, ends assumed
Reference: no-protein control
Reading: higher = stronger binding
Endpoint: RBNS enrichment (R)
Constant ends, left off below: GGGAGUUCUACAGUCCGACGAUC … UGGAAUUCUCGGGUGCCAA
Target sequence (chain): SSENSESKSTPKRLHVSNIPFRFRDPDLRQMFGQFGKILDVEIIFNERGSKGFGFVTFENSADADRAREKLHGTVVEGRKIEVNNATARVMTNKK
GCCCCAUCCCUCCUAGGAAGAGAGAACUUUGCUGACGAUCUCACUACUUUUGAAGAAAAGAAGCCCUAUCUGGAGACUUGACUCCAGAGCGAAGCCCUAUCUGGAGACUU: 0.372
UGCACUUAGCGGGGUACCCGGCUCCCCCAGCCCCCACACCCGUCCUGGGUCUCAGGGUGGUUCCAGCUUCUCCUUGGGCAGCCAGAAGUUGGAGUCCCAUCCCCCAAGGC: 0.621
UUAAACUGUCAGCUGGUCUAGCCUGAGCGAGGCCUGAGACCAUCAGUCACUAAGAGCAGUGGCUAACCUCAUCGAAGUUGGAAGGAAUGUUUUUAAAAUUACCUCUUCGA: 1.61
AGACAACAUCUGCUUACCUGGCAGAACUCCCCACUCCACUCCCCCAGGUGGGCUGGGUGGAAGGACCCUCAGCCACCAAGAACUGACGCCCUCAUGGCCCUAGACUAUGG: 0.474
CCCCCAAAGGUACUGAAAAGUCUCUGAUGCUCCUACUCCUGGAAAGAAGUCUGGGAAGCCCCUUUCGCUCUGCCUCCUGCAUCCUCCCAGAUAACAAAACACAUUAACAC: 0.677
AAAGAGGUCAACAGCACGGGCAGGGAGCCAAGGGGCUGGGUGCUCAGACUCUUAACAAUAUCCCAAGGUGGCCCCUUUCCUCCGAGCAUUCCCAUGGCACUUCACCAGCC: 0.578
GUGUGGAGCUAGGUAGGCUAGGGUCUGUUUCACCAGGAAUCUCUCCUGAGGCCCAGUGGCAGCCUCUGUCACAGGGUCCCAGAGCCUGAGCUGAGGCGUCACCCUUAAAG: 0.354
UCUCCACUCUCCUGCCUUCAGCCAUAGCAAAGAAUCCUUCCAAAAUCAAACUCUUCACUUUUUUGACUCAAGUGUUGUUGUUCAGUCUCUCGCGUGUCAAUGUGGUCAUG: 0.935
GGAUGACACUGUAAACUCUCUGGACGAGUAGGAGCAAGGUGAGACAUUUCAAGAAAUUACAGACUUCAUUAAAGGUGUAAAUUAAAGUGGCUUGCCAAAAACGAGGAACU: 0.734
ACCAGCCUGUGGCAAUCAGCAGGGAAAGACAGGUGCUCCUGUCAUAGGGGCUUGAGCUACCACAGCUACCACACAGCUUUCUGGAUCUUCUAUAUGGCAGUUCAUUCUUG: 0.248
UAUUUUUUGUAUUAGUAUGGUUUGAGACAACAUAUGGAAAAUGUUCACAUUUGUAGAUUAAGCUGGAAUUAUAAUGAGAGCAAUAAGAACAAAUUUAUUUUGCUUACCAC: 1.25
UAACUGUUAGCUUAAAACUGUGGGGUUUUACCUUCCUGGAACCAAAUGCAUUCUUCUGUUGAGGAGUAACAGGUCUCAAUUCUUUUCAAUUAAUUUUAAAAGUCAAUCAC: 0.493

Block 3
Target: Fragile X messenger ribonucleoprotein 1, C-terminal low-complexity region (Fmr1, Mus musculus, UniProt P35922)
Method: RNA Bind-n-Seq
Molecule type: RNA
Medium: in vitro
Concentration: 200 nM
Setting: whole 134-nt RNA, ends assumed
With: 150 mM LiCl
Reference: input library
Reading: higher = stronger binding
Endpoint: log2 enrichment
Library: 7-deaza-guanosine replaces G
Constant ends, left off below: GGGAGUUCUACAGUCCGACGAUC … UGGAAUUCUCGGGUGUCAAGG
UGUGGAGGAGACGGCCGACUCGACGCUGUGCCACAUCCUGAACCUGUACCGGCGGGCCACCUGGCUGCACCAGGCGCUGCGGGAGGGCAC: -0.213
UGGGAGGUGGAUUUUGUUUAUUUUUUUAGCUCAUUUCCAGGGGUGGGAAUUUUGUUUUAAUAUGUGUCAUGAAUAAAGUUGUUUUUGAAA: -0.28
GUCCUGUGCUACACAUCGUAUGUACCGAAUCGGGAAAAAAGGAAAAAAGGAAAAAAGGAAAGUAUUAUGUUACGCCGUUCGGAUCUGCAC: -0.396
UCCUGUGCUACACAUCGUAUGUACCGAAUCGGAAAAAAGGAAAAAAGGGGAAAAAAGGGGAAAGUAUUAUGUUACGCCGUUCGGAUCUGC: -0.959
ACCAUGCAGGUGGGCAUCUUUGGGAAGUGGGGCAAGGGGGGGAUAGGGAGGGGGGUAACACUUUGGGAACAGGUGGUCCCAGGUCGUAUC: 1.12
CUGUGCUACACAUCGUAUGUACCGAAUCGGGGAAAAAAAGGGAAAAAAAGGAAAAAAAGGGAAAGUAUUAUGUUACGCCGUUCGGAUCUG: 0.192
AAGUCCUGUGCUACACAUCGUAUGUACCGAAUCGGUUUGGUUUUUGGAAAAAAAGGAAAGUAUUAUGUUACGCCGUUCGGAUCUGCACUU: -2.09
CAAGUCCUGUGCUACACAUCGUAUGUACCGAAUCGGUUUUUUUGGAAAAAGGUGGAAAGUAUUAUGUUACGCCGUUCGGAUCUGCACUUC: -1.7
UAGCCCUGGUGGCAUGCGGGGAGGAAGAGGUGGCCUCAUGGAUCGUGGUGGUCCCGGUGGAAUGUUCAGAGGUGGCCGUGGUGGAGACAG: 0.34
ACCAUGCAGGUGGGCAUCUUUGGGAAGUGGGGCAAGGGGGGGAUAGGGAGGGGGGUAACCCUUUGGGAACAGGUGGUCCCAGGUCGUUUC: 0.866
UGGGAGGUGGAUUUUGUUUUUUUUUUUAGCUCAUUUCCAGGGGUGGGAAUUUUUUUUUAAUAUGUGUCAUGAAUAAAGUUGUUUUUGAAA: 0.386

Block 4
Target: Histone acetyltransferase KAT6A, both winged helices, GST fusion (KAT6A, Homo sapiens, UniProt Q92794, residues 1-181)
Method: protein binding microarray
Molecule type: double-stranded DNA, one strand shown
Medium: in vitro
Concentration: not given
Setting: 8-mer, flanks averaged, mean of 2 arrays, mostly near background
Reference: not given
Reading: higher = stronger binding
Endpoint: E-score
Residues (chain): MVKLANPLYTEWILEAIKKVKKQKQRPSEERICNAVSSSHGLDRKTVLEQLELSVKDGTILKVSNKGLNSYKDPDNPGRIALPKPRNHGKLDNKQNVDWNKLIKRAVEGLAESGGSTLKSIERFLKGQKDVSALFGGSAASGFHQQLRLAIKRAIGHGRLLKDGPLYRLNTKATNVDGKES
CTGTTGCA: -0.0154
CTGAGTCC: 0.051
ACATAGCA: -0.135
AGGCCACG: -0.0326
CGTCTCTA: -0.00862
GTCATTAA: -0.0239
TACGGAGA: 0.0976
CTACGAAG: -0.106
CTAAGCAG: -0.108
ACGAGCAT: -0.175
AATCTGTG: -0.0516
GTTATGAA: -0.00823
CTCTATAA: -0.088
TAGACTCA: -0.0788
AGGGTGAG: -0.15
AGACTACC: -0.0516
CAATTTGC: -0.131
CCCTCAGA: -0.24
GCAACGCA: 0.149
GTTACAAC: 0.0589
ATCTAAGA: -0.201
AGGTAACC: -0.0983
AAGGCTTC: -0.124
ATTGCGGC: 0.262
GAACTGGC: -0.0592

Repeated from above (block 3):
CAAGUCCUGUGCUACACAUCGUAUGUACCGAAUCGGUUUUUUUGGAAAAAGGUGGAAAGUAUUAUGUUACGCCGUUCGGAUCUGCACUUC: -1.7
UGGGAGGUGGAUUUUGUUUAUUUUUUUAGCUCAUUUCCAGGGGUGGGAAUUUUGUUUUAAUAUGUGUCAUGAAUAAAGUUGUUUUUGAAA: -0.28
ACCAUGCAGGUGGGCAUCUUUGGGAAGUGGGGCAAGGGGGGGAUAGGGAGGGGGGUAACACUUUGGGAACAGGUGGUCCCAGGUCGUAUC: 1.12
CUGUGCUACACAUCGUAUGUACCGAAUCGGGGAAAAAAAGGGAAAAAAAGGAAAAAAAGGGAAAGUAUUAUGUUACGCCGUUCGGAUCUG: 0.192
UGUGGAGGAGACGGCCGACUCGACGCUGUGCCACAUCCUGAACCUGUACCGGCGGGCCACCUGGCUGCACCAGGCGCUGCGGGAGGGCAC: -0.213
UGGGAGGUGGAUUUUGUUUUUUUUUUUAGCUCAUUUCCAGGGGUGGGAAUUUUUUUUUAAUAUGUGUCAUGAAUAAAGUUGUUUUUGAAA: 0.386
UAGCCCUGGUGGCAUGCGGGGAGGAAGAGGUGGCCUCAUGGAUCGUGGUGGUCCCGGUGGAAUGUUCAGAGGUGGCCGUGGUGGAGACAG: 0.34
GUCCUGUGCUACACAUCGUAUGUACCGAAUCGGGAAAAAAGGAAAAAAGGAAAAAAGGAAAGUAUUAUGUUACGCCGUUCGGAUCUGCAC: -0.396
UCCUGUGCUACACAUCGUAUGUACCGAAUCGGAAAAAAGGAAAAAAGGGGAAAAAAGGGGAAAGUAUUAUGUUACGCCGUUCGGAUCUGC: -0.959
